# Results from different studies.
# Each line is one published result; not all experiments were run side by side. Values joined by “and” are separate records of one study, mostly repeats; a detail may differ. ± gives the spread as reported.
# ADRA2C: Alpha-2C adrenergic receptor (ADRA2C, Homo sapiens, UniProt P18825)
# Sequence of UniProt P27361 (whole entry, looked up): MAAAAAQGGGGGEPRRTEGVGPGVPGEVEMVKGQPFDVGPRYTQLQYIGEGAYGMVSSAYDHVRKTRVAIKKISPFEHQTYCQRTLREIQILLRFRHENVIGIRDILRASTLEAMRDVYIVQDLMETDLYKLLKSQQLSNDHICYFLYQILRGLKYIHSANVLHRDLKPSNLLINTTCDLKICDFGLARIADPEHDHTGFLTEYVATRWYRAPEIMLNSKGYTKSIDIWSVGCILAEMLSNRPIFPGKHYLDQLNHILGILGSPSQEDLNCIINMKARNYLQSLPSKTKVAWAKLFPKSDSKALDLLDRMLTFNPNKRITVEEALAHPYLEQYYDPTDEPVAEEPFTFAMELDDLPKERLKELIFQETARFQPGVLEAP
# Sequence of UniProt P06276 (whole entry, looked up): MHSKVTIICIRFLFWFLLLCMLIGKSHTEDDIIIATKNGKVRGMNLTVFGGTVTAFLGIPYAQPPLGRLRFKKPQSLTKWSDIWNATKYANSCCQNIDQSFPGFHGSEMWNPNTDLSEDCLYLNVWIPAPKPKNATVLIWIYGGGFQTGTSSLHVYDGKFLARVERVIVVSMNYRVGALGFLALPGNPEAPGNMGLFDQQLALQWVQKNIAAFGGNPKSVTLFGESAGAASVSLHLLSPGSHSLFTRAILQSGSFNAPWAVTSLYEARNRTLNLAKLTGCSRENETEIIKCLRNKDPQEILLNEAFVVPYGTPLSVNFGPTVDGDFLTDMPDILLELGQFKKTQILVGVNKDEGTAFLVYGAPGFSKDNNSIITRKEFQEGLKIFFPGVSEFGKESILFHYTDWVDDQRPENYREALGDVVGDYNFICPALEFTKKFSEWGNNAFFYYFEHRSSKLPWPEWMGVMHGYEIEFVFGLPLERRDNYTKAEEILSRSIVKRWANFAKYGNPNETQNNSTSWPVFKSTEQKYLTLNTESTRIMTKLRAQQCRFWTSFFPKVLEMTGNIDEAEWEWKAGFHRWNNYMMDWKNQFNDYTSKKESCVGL
# Sequence of UniProt P18825 (whole entry, looked up): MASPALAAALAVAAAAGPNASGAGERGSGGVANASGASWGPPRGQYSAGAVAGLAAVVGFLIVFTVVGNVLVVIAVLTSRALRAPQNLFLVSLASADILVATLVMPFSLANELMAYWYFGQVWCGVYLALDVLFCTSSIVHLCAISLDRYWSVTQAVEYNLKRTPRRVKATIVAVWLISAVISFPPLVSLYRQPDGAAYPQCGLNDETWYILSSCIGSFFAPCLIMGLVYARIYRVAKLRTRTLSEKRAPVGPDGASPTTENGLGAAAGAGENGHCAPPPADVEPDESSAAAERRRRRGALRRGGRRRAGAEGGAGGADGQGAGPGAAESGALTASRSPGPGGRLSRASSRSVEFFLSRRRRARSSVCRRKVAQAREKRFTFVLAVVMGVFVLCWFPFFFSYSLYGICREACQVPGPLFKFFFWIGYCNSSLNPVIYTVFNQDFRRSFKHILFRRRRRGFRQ
# Sequence of UniProt Q15759 (whole entry, looked up): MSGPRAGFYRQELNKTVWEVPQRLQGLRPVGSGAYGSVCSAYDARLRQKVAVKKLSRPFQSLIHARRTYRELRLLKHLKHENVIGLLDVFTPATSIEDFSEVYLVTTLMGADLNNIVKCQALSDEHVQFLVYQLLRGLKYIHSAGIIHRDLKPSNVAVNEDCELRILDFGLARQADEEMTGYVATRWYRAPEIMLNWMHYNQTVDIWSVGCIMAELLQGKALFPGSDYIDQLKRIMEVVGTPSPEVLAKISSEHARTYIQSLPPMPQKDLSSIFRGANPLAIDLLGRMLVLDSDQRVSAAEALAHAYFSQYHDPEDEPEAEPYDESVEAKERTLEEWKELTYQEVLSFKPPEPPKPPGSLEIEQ
# Sequence of UniProt Q13163 (whole entry, looked up): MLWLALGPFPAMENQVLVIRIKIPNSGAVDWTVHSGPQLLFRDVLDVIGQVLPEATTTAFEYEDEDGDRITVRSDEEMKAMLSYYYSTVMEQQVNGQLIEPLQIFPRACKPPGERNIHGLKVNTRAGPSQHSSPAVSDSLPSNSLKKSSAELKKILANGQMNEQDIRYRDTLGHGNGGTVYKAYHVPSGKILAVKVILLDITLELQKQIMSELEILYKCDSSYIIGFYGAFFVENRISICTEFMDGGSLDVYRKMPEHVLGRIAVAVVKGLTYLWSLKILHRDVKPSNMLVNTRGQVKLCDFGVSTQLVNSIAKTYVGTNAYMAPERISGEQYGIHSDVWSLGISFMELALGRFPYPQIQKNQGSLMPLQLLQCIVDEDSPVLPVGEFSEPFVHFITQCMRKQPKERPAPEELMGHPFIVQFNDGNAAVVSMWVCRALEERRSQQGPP
# Sequence of UniProt Q62351 (whole entry, looked up): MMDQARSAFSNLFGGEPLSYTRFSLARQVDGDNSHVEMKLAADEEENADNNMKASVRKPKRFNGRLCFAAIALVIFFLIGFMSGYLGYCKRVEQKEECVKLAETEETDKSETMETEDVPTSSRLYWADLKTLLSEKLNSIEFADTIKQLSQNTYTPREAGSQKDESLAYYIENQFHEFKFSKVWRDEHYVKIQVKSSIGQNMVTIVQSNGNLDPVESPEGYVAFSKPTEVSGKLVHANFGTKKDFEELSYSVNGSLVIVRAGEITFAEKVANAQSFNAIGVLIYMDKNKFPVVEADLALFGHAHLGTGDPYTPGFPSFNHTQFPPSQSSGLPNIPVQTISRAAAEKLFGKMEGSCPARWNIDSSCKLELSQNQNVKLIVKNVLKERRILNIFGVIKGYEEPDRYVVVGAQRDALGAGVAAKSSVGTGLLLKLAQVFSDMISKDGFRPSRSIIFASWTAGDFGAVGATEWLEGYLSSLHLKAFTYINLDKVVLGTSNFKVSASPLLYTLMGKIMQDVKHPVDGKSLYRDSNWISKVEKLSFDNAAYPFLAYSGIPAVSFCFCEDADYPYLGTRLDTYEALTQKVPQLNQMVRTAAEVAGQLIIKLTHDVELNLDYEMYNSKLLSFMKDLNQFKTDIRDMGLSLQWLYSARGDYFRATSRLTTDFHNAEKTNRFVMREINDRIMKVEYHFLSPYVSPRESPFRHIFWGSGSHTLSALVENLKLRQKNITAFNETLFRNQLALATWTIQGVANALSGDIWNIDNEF
# Sequence of UniProt Q13224 (whole entry, unmodified, looked up): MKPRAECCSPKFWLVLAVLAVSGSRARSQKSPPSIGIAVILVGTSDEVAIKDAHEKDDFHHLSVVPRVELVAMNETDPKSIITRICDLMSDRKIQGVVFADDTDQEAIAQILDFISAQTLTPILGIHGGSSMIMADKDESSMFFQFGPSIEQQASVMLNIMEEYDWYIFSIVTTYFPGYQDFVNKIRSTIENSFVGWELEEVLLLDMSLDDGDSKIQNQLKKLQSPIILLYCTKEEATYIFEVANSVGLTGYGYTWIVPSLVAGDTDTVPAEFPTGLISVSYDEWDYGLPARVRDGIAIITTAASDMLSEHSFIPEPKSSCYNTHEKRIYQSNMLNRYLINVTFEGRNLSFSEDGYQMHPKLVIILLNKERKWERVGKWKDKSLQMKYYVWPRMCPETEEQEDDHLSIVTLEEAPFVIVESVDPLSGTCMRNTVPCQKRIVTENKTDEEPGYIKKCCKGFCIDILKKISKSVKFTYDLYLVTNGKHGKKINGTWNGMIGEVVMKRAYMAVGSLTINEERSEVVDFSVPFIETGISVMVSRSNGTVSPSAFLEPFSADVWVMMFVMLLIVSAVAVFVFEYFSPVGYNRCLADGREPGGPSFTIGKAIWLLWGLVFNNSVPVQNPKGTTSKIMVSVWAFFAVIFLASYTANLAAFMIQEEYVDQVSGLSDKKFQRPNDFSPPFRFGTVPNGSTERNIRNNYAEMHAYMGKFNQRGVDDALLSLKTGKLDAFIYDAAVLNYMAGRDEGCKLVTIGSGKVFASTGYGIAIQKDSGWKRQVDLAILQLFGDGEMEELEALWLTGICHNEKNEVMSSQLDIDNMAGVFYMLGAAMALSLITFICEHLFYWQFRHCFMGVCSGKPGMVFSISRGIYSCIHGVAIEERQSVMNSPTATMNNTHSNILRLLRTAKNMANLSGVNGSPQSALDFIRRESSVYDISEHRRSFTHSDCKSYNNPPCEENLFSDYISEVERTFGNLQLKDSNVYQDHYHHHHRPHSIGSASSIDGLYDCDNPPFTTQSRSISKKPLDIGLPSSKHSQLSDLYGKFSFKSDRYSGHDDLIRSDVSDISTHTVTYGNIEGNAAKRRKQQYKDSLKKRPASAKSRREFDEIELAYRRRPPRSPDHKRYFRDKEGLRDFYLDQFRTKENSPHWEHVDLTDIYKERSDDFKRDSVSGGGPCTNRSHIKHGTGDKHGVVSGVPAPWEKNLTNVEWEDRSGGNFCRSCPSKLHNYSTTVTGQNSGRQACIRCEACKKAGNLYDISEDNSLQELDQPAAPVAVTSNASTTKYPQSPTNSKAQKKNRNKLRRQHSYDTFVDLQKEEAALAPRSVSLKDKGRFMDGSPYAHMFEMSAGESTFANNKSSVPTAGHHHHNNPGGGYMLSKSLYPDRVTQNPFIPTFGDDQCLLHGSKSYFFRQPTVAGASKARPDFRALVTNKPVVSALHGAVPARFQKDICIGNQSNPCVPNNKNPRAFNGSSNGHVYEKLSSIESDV
# Sequence of UniProt P35367 (whole entry, looked up): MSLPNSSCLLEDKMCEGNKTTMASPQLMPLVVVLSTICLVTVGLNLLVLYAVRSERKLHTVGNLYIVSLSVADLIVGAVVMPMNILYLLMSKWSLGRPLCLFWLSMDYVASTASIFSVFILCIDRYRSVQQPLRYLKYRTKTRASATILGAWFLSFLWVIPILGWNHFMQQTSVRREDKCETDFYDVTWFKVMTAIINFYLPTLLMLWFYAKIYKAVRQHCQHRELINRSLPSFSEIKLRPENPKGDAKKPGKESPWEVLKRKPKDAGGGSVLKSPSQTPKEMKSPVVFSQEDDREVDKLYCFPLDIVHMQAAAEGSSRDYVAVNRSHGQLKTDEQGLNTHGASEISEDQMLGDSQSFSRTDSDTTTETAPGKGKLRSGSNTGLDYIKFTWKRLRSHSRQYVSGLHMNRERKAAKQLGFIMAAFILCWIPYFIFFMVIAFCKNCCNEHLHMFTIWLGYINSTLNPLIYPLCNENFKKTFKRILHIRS
Structure (SMILES),tested on,assay,system,conditions,how to read,quantity,value
O=C(c1ccc(Cl)cc1)N1CCN2C(=O)N(OC(=O)N3CCOc4ccccc43)C(=O)C2C1 (centres unmarked),"Peptidyl-prolyl cis-trans isomerase B (Homo sapiens, UniProt P23284)",MS-based ABPP,SW-620 conditioned medium,"10 µM, 1 h, 37 °C, mean protein ratio",baseline: compound over DMSO,probe labelling ratio,1.45
CN(C)c1ccc(O)c2c1C[C@H]1C[C@H]3[C@H](N(C)C)C(O)=C(C(N)=O)C(=O)[C@@]3(O)C(O)=C1C2=O,Plasmodium falciparum,,W2,,,IC50,794 nM
CC(COc1ccccc1)NC(C)C(O)c1ccc(O)cc1 (centres unmarked),"Cholinesterase (BCHE, Homo sapiens, UniProt P06276)",,,"concentration not given, Triton",,efficacy,-94.3 ± 10.2%
N#C[Se]CCCCOc1ccc2c(-c3ccccc3)cc(=O)oc2c1,"CA12 (Homo sapiens, UniProt O43570)",stopped-flow CO2 hydration,,,baseline: Ki CA I over Ki CA XII,selectivity ratio,> 338
O=C(Nc1cccnn1)N1CCC(=Cc2cccc(Oc3ccc(C(F)(F)F)cn3)c2)CC1,"HRH1 (Homo sapiens, UniProt P35367)",radioligand binding,,"10 µM, added: [3H]pyrilamine",,inhibition of binding,36%
Nc1ccn([C@H]2C[C@H](O)[C@@H](COP(=O)(O)OP(=O)(O)OP(=O)(O)O)O2)c(=O)n1,"Gag-Pol polyprotein, reverse transcriptase (gag-pol, Human immunodeficiency virus type 1 group M subtype B, UniProt P04585, K653N)","nucleotide misincorporation, steady-state kinetics",,"K66N RT, added: matched template/primer, template T",,kcat,0.115 ± 0.0387 s⁻¹
CO[C@H]1C[C@@H]2CC[C@@H](C)[C@@](O)(O2)C(=O)C(=O)N2CCCC[C@H]2C(=O)O[C@H]([C@H](C)C[C@@H]2CC[C@@H](OC(=O)NCCOCCOCCOCCOCCOCCOCCOCCOCCC(=O)N3CCc4cc(Cn5nc(-c6ccc7oc(N)nc7c6)c6c(N)ncnc65)ccc4C3)[C@H](OC)C2)C[C@@H](O)[C@H](C)/C=C(\C)[C@@H](O)[C@@H](OC)C(=O)[C@H](C)C[C@H](C)/C=C/C=C/C=C/1C,,,patients with advanced solid tumours,"intravenous, 8 mg weekly, any grade",,anaemia incidence,43.8%
Oc1cc(Cl)cc(-c2cccc(Cl)c2)c1,"Androgen receptor (AR, Homo sapiens, UniProt P10275)","reporter gene, antagonist",,"24 h, added: DHT 2 nM",,IC25,700 nM
CN(C(=O)n1cnc(-c2ccc[n+]([O-])c2)c1)C1CCCCC1,"Adra1b (Rattus norvegicus, UniProt P15823)",radioligand binding,,"10 µM, added: [3H]prazosin",,inhibition,4%
O=C1NCN(c2ccccc2)C12CCN(CC1COc3ccccc3O1)CC2 (centres unmarked),"Cholinesterase (BCHE, Homo sapiens, UniProt P06276)",,,"concentration not given, Triton",,efficacy,-29.5 ± 8.15%
CC(C)CN1CCc2ccc(Br)cc21,Plasmodium falciparum,,HB3,,,IC50,12600 nM
COc1cc(Nc2ncc(F)c(Nc3ccc4c(n3)NC(=O)C(C)(C)O4)n2)cc(OC)c1OC,"MAP2K5 (Homo sapiens, UniProt Q13163)","binding, KINOMEscan",,"10 µM, MEK5 kinase",,inhibition,100%
COc1ncccc1-c1cnn2ccc(N3CCN(C(=O)OC(C)C)CC3)nc12,"Tyrosine-protein kinase ABL1, non-phosphorylated (ABL1, Homo sapiens, UniProt P00519)",KINOMEscan,,1 µM,,remaining binding,67%
CN1CCN(c2cc(-c3ccncc3)c(-c3ccc4ccccc4c3)nn2)CC1,ADRA2C,"agonist, FLIPR",,12.5 µM,,activation,3.3%
Nc1nc2c(ncn2[C@@H]2O[C@H](COP(=O)(O)OP(=O)(O)OP(=O)(O)O)[C@@H](O)[C@H]2O)c(=O)[nH]1,"GTP 3',8-cyclase (moaA, Staphylococcus aureus, UniProt P69848)",isothermal titration calorimetry,,concentration not given,,binding entropy ΔS,-41.7 cal/mol/K
COC(=O)[C@@]1(O)C[C@H]2O[C@]1(C)n1c3ccccc3c3c4c(c5c6ccccc6n2c5c31)C(=O)NC4,"MAPK3 (Homo sapiens, UniProt P27361)",ADP-Glo,,"251 nM, added: MBP substrate",,kinase activity,41.1% and 22.6% and 47%
COC(=O)c1ccc(NS(=O)(=O)c2c(C)[nH]c(C)c2C(=O)N2CCC(F)(F)C2)cc1Cl,"DRD3 (Homo sapiens, UniProt P35462)","β-arrestin recruitment, agonist, PathHunter",,,baseline: dopamine,Imax,95 ± 4%
C[C@H]1CN(c2n[nH]c3nc(N[C@H]4CC[C@H](NS(=O)(=O)CCC(F)(F)F)CC4)ncc23)CCO1,"Zinc transporter 7 (Homo sapiens, UniProt Q8NEW0)","Kinobeads competition, item: SLC30A7",,"20 µM, unit not given",baseline: vehicle,remaining binding,1.25
C[C@H]1COCCN1c1nc(NCc2cccnc2C(F)(F)F)c2cccnc2n1,"KDR (Homo sapiens, UniProt P35968)",binding,,CEREP panel,,IC50,> 100000 nM
O=C(Nc1cnccc1Cl)N1CCN(Cc2ccc3c(c2)OC(F)(F)O3)CC1,ADRA2C,binding,,"50 µM, added: [3H]rauwolscine",,inhibition,37%
Fc1ccc(Oc2ccnc3cc(Cl)cc(Cl)c23)cc1,"PPARG (Homo sapiens, UniProt P37231)","reporter gene, agonist, β-lactamase reporter",HEK293-H cells,"24 h, nominal concentration",baseline: 10% of rosiglitazone maximum effect,EC10,384 nM
COc1ccc(N2C(=O)N(c3c(C)cccc3Cl)Cc3cnc(Nc4ccc(C5CCN(C)CC5)cc4OC)nc32)nc1,"MAPK11 (Homo sapiens, UniProt Q15759)","kinase activity, inhibitor",,"0.5 µM, kinase P38-BETA",,inhibition,84%
Nc1nc2c(ncn2[C@@H]2O[C@@H]3COP(=O)(O)O[C@H]4[C@@H](O)[C@H](n5cnc6c(=O)[nH]c(N)nc65)O[C@@H]4COP(=O)(O)O[C@H]3[C@H]2O)c(=O)[nH]1,"Cell cycle histidine kinase CckA, R374A; cytoplasmic region (Caulobacter vibrioides, UniProt Q9X688, R374A)",ITC,,"12 °C, added: AMPPNP 5 mM",,-TΔS,-6.3 kcal/mol
CC(=O)P(=O)(O)OCCc1cn([C@H](Cc2ccccc2)C(=O)O)nn1,"dxs (Pseudomonas aeruginosa, UniProt Q9KGU7, R106A)","inhibitor, DXPS-IspC coupled",,,baseline: wild-type enzyme,IC50 fold increase,17 fold
CC(C)[C@@H](O)CC[C@@H](C)[C@H]1CC[C@H]2[C@@H]3CC=C4C[C@@H](O)CC[C@]4(C)[C@H]3CC[C@]12C,"Glutamate NMDA receptor; GRIN1/GRIN2B (GRIN1/GRIN2B, Homo sapiens, UniProt Q05586+Q13224, M555A)","positive allosteric modulator, two-electrode voltage clamp",Xenopus oocytes expressing GluN1-M555A,"10 µM, 0.02% cremophor, added: 100 µM glutamate and glycine",baseline: without compound,current response,176 ± 7.9%
[2H]c1c([2H])c([C@]2([2H])CCCN2C(=O)C(C)(C)Oc2ccc3cn[nH]c3c2)c([2H])c([2H])c1C([2H])([2H])[2H],"CDC42BPA (Homo sapiens, UniProt Q5VT25)",KINOMEscan,,1 µM,baseline: DMSO control,remaining binding,77%
CC(C)(C)CC(C)(C)c1ccc(O)c(Cc2ccc(Cl)cc2Cl)c1,"Cholinesterase (BCHE, Homo sapiens, UniProt P06276)",,biochemical,concentration not given,,activity class,inactive
CC1=C(C(=O)O)N2C(=O)[C@@H](NC(=O)[C@H](N)c3ccccc3)[C@H]2SC1,"Penicillin-binding protein 1A (pbpA, Streptococcus pneumoniae, UniProt Q8DR59)",inhibitor,,,,kinact/KI,220 ± 120 M⁻¹ s⁻¹
COc1cc(CCC(=O)N2CCC(Cc3ccccc3)CC2)ccc1OC(=O)N(c1ccccc1)c1ccccc1,"Cholinesterase (BCHE, Equus caballus, UniProt P81908)",Ellman,equine serum BuChE,,baseline: AChE IC50 over BuChE IC50,selectivity ratio,0.4
COc1cc(N)c(Cl)cc1C(=O)NC1CN2CCC1CC2 (centres unmarked),"GPR37L1 (Homo sapiens, UniProt O60883)","β-arrestin recruitment, TANGO luminescence",,concentration not given,baseline: basal luminescence,log2 fold change,-0.312
CC[C@@H](C)[C@@H](NC(=O)[C@@H](Cc1ccc(O)cc1)NC(=O)[C@H]1CCCN1C(=O)[C@@H](CCCNC(=N)N)NC(=O)[C@H](N)Cc1c[nH]cn1)C(=O)N[C@H](C)C(=O)N[C@H](Cc1c[nH]cn1)C(=O)N[C@H](CCCNC(=N)N)C(=O)N[C@H](CCCCNC(=O)c1cccc(S(=O)(=O)F)c1)C(=O)N[C@H](Cc1ccc(O)cc1)C(=O)N[C@H](CO)C(=O)N[C@H](Cc1ccccc1)C(N)=O,"Transferrin receptor protein 1 (Tfrc, Mus musculus, UniProt Q62351)",flow cytometry,DC2.4,"6 h, pH 7.4, unit not given",baseline: 0 h,surface TFRC expression,0.74
Cc1ccc(NC(=O)c2ccc(CN3CCN(C)CC3)cc2)cc1Nc1nccc(-c2cncc(-c3oncc3C)c2)n1,DDR1/DDR2,KinaseProfiler,,500 nM,,remaining activity,≤ 50%
